Experimental data pooled from the literature.
Each line is one published result; not all experiments were run side by side. Values joined by “and” are separate records of one study, mostly repeats; a detail may differ. ± marks the error that the study gave.

SMILES | target or system | test | test system | conditions | scale | measurement | value
CC(C)(C)NCc1ccc(Nc2ccnc3cc(Cl)ccc23)cc1O | Vero-E6 | CellTiter-Glo ATP | – | 72 h, retest 8-point duplicates | reference: DMSO 0%, hyamine -100%, more negative, more toxic | maximum response | -34%
CC(C)C[C@@H](NC(=O)[C@H](N)CCCCN)C(=O)N1CCC[C@@H]1C(=O)N[C@H](Cc1ccccc1)C(=O)N[C@H](Cc1ccccc1)C(=O)N[C@H](C)C(=O)N[C@H](CCC(=O)O)C(N)=O | NGF-differentiated PC-12 neurons | – | – | 40 µM, 24 h | reference: untreated | viability | 91.5%
O=S(=O)(c1ccc(-c2ccc3nccc(Nc4ccccn4)c3c2)cc1)N1CCOCC1 | NIH 3T3 | cytotoxicity, PrestoBlue | – | 96 h, 2% FBS | – | TC50 | > 20 µM
Cc1ccc2[nH]c3c(c2c1)CCC/C3=N\CCC/N=C1\CCCc2c1[nH]c1ccc(C)cc21 | A549 | – | – | 50 µM, 23 h | – | non-viable cells | 19.3 ± 10.1%
C#CC[C@H](NC(=O)[C@H](CCCCN)NC(=O)[C@H](CCCCN)NC(=O)[C@H](Cc1c[nH]c2ccccc12)NC(=O)[C@H](CCCCN)NC(=O)[C@H](CCSC)NC(=O)[C@H](CCCNC(=N)N)NC(=O)[C@H](CCCNC(=N)N)NC(=O)[C@H](CC(N)=O)NC(=O)[C@H](CCC(N)=O)NC(=O)[C@H](Cc1ccccc1)NC(=O)[C@H](Cc1c[nH]c2ccccc12)NC(=O)[C@@H](NC(=O)[C@H](CCCCN)NC(=O)[C@@H](NC(=O)[C@H](CCC(N)=O)NC(=O)[C@@H](N)CCCNC(=N)N)[C@@H](C)CC)[C@@H](C)CC)C(=O)N[C@@H](CC(N)=O)C(=O)N[C@@H](Cc1c[nH]cn1)C(=O)N[C@H](C(=O)N[C@@H](CCSC)C(=O)N[C@@H](CC(C)C)C(=O)N[C@@H](CC(N)=O)C(=O)N[C@@H](Cc1c[nH]cn1)C(=O)N[C@@H](CC(C)C)C(=O)N[C@@H](Cc1ccc(O)cc1)C(=O)N[C@@H](C)C(=O)N[C@@H](CC(C)C)C(=O)N[C@@H](CO)C(=O)N[C@H](C(=O)N[C@@H](CCCCN)C(=O)N[C@@H](CC(=O)O)C(=O)NCC(=O)N[C@H](C(N)=O)C(C)C)[C@@H](C)CC)C(C)C | C26 | – | – | 2.2 µM, two days | – | cell growth | no effect
O=C(NCCCN1CCCCCC1)c1ccc2c(c1)sc1nc(-c3ccccc3)cn12 | Vero-E6 | CellTiter-Glo ATP | – | 72 h, second round 5-point | reference: DMSO 0%, hyamine -100%, more negative, more toxic | maximum response | -26.1%
CC(C)C[C@@H](NC(=O)[C@H](N)CCCCN)C(=O)N[C@H](CC(C)C)C(=O)N[C@H](Cc1ccccc1)C(=O)N[C@H](Cc1ccccc1)C(N)=O | NGF-differentiated PC-12 neurons | – | – | 10 µM, 24 h | reference: untreated | viability | 99.8%
Cc1cc(C(C)(C)c2ccc(O)c(C)c2)ccc1O | HepG2 spheroids | annexin V-FITC/PI flow cytometry | – | 1 µM, 96 h | – | late apoptotic cells | 32.9 ± 6.22%
CCCCN1CCC(N(Cc2ccccc2)C(=O)Nc2ccc(Cl)c(Cl)c2)CC1 | HCC95 cells | CellTiter-Glo | – | – | – | LD50 | 31.8 µM
O=S(=O)(c1ccc(O)cc1)c1ccc(O)cc1 | HepG2 spheroids | annexin V-FITC/PI flow cytometry | – | 0.1 µM, 24 h | – | necrotic cells | 7.29 ± 0.4%
CN1CCCN(S(=O)(=O)c2ccc(-c3ccc4nncc(Nc5ccc(OCc6cccc(F)c6)c(Cl)c5)c4c3)cc2)CC1 | NIH 3T3 | PrestoBlue | 2% FBS medium | 96 h | – | TC50 | 27 µM
O=c1ccc2ccccc2o1 | HepG2 | measured: HIF1alpha | – | 24 h, inflammation and pH panel | – | point of departure | 849 µM
CCN(N=O)C(N)=O | HepaRG | – | – | maximum tested, 24 (unit not given) | reference: vehicle | micronuclei fold increase | 2.1 fold
Cc1ccc2[nH]c3c(c2c1)CCCC3NCCc1ccc(Cl)cc1 (stereo not drawn) | A549 | – | – | 50 µM, 23 h | – | non-viable cells | 69.2 ± 26%
CN(CC[C@H](Oc1cccc2ccccc12)c1cccs1)N=O | TK6 | – | – | 5 µM, 4 h, together with: hamster liver S9 | reference: vehicle | relative survival | 40.9%
COc1c2c(cc3oc(-c4ccccc4)cc(=O)c13)OC(C)(C)C=C2 | Calu-3 | – | – | 50 µM | – | cytotoxicity | 10.5%
O=C(O)C[C@@]1(O)C[C@@H](CCCCCCc2ccc(Cl)cc2Cl)OC1=O | human coronavirus OC43 | virus-induced cell killing | MRC-5 | screen | – | maximum inhibition | 18.9%
CC(C)C[C@@H](N)C(=O)N[C@H](Cc1ccccc1)C(=O)N[C@H](Cc1ccccc1)C(=O)N[C@H](C)C(=O)N[C@H](CCC(=O)O)C(N)=O | NGF-differentiated PC-12 neurons | – | – | 40 µM, 24 h | reference: untreated | viability | 65.3%
CC(C)C[C@H](NC(=O)[C@H](C)NC(=O)[C@@H](NC(=O)[C@H](CCCNC(=N)N)NC(=O)[C@H](CC(C)C)NC(=O)[C@H](Cc1c[nH]c2ccccc12)NC(=O)[C@@H]1CCCN1C(=O)[C@@H](N)CCCCN)C(C)C)C(=O)N[C@@H](CS)C(=O)N1CCC[C@H]1C(=O)NCC(=O)O | A549 | WST-1 | – | 8 µM, 24 h | – | viability | 82.4% and 86.6% and 92.4%
CC(C)C[C@@H](NC(=O)[C@H](N)CCCCN)C(=O)N1CCC[C@@H]1C(=O)N[C@H](Cc1ccccc1)C(=O)N[C@H](Cc1ccccc1)C(=O)N[C@H](C)C(N)=O | NGF-differentiated PC-12 neurons | – | – | 20 µM, 24 h | reference: untreated | viability | 97%

SMILES | target or system | test | test system | conditions | scale | measurement | value
N#C[C@@]1(n2ccc(N)nc2=O)O[C@H](COP(=O)(O)OP(=O)(O)OP(=O)(O)O)[C@@H](O)[C@H]1O | Calu-3 | cellular egress | – | 10 µM, 24 h preincubation | – | half-life | 1.7 h
COc1ccccc1-c1cccc(CN2CCCC(C(=O)NCc3ccc(F)cc3)C2)c1 (stereo not drawn) | Vero-E6 | CellTiter-Glo ATP | – | 72 h, first round 5-point | reference: DMSO 0%, hyamine -100%, more negative, more toxic | maximum response | -20.7%
CC(C)C[C@@H](NC(=O)[C@H](N)CCCCN)C(=O)N[C@H](CC(C)C)C(=O)N[C@H](Cc1ccccc1)C(N)=O | NGF-differentiated PC-12 neurons | – | – | 5 µM, 24 h | reference: untreated | viability | 100%
Oc1ccc(C(c2ccc(O)cc2)(C(F)(F)F)C(F)(F)F)cc1 | HepG2 spheroids, dissociated | annexin V-FITC/PI flow cytometry | – | 0.1 µM, 24 h | – | viable cells | 70 ± 8.99%
CCCCN(C)CCNC(=O)c1cc(-c2ccc(Cl)s2)nc2ccccc12 | Vero-E6 | CellTiter-Glo ATP | – | 72 h, first round 5-point | reference: DMSO 0%, hyamine -100%, more negative, more toxic | maximum response | -14.7%
CC(C)C[C@@H](NC(=O)[C@H](N)CCCCN)C(=O)N[C@H](CC(C)C)C(=O)N[C@H](Cc1ccccc1)C(=O)N[C@H](Cc1ccccc1)C(=O)N[C@H](C)C(=O)N[C@H](CCC(=O)O)C(N)=O | NGF-differentiated PC-12 neurons | – | – | 5 µM, 24 h | reference: untreated | viability | 100%
CC1(C)C(N(O)C(=O)Nc2ccc(Cl)cc2)N(c2ccc(Cl)cc2)C(=O)N1CC(=O)N/N=C/C=C/c1ccc([N+](=O)[O-])o1 (stereo not drawn) | human coronavirus OC43 | virus-induced cell killing | MRC-5 | screen | – | maximum inhibition | 21.4%
c1cncc(-c2nn3c(Cn4nnc5ccccc54)nnc3s2)c1 | HEp-2 | cytotoxicity | – | – | – | CC50 | > 100 µM
CC(C)C[C@@H](NC(=O)[C@H](N)CCCCN)C(=O)N[C@H](CC(C)C)C(=O)N[C@H](Cc1ccccc1)C(=O)N[C@H](Cc1ccccc1)C(=O)N[C@H](C)C(N)=O | NGF-differentiated PC-12 neurons | – | – | 5 µM, 24 h | reference: untreated | viability | 99.8%
Cc1oc(-c2cccc(Cl)c2)nc1CN1CCCC(C(=O)NCCc2ccc(Cl)cc2)C1 (stereo not drawn) | Vero-E6 | CellTiter-Glo ATP | – | concentration not given, 72 h, first round 5-point | reference: DMSO 0%, hyamine -100%, more negative, more toxic | cytotoxicity efficacy | -18.6%
O=S(=O)(c1ccc(-c2ccc3nccc(Nc4ccc5[nH]nnc5c4)c3c2)cc1)N1CCOCC1 | NIH 3T3 | cytotoxicity, PrestoBlue | – | 96 h, 2% FBS | – | TC50 | > 20 µM
COCCCNC(=O)C1CCN(Cc2cc3ccccc3n2Cc2cccc(Cl)c2)CC1 | Vero-E6 | CellTiter-Glo ATP | – | concentration not given, 72 h, second round 5-point | reference: DMSO 0%, hyamine -100%, more negative, more toxic | cytotoxicity efficacy | 0%
CC(C)C[C@@H](N)C(=O)N[C@H](CC(C)C)C(=O)N[C@H](Cc1ccccc1)C(=O)N[C@H](Cc1ccccc1)C(N)=O | NGF-differentiated PC-12 neurons | – | – | 10 µM, 24 h | reference: untreated | viability | 61%
O=NN1CC2CC(C1)c1cc3nccnc3cc12 | TK6 | – | – | 20 µM, 4 h, together with: hamster liver S9 | reference: vehicle | relative survival | 112%
O=S(=O)(c1ccc(-c2ccc3nccc(Nc4ccc(OCc5cccc(F)c5)cc4)c3c2)cc1)N1CCOCC1 | NIH 3T3 | cytotoxicity, PrestoBlue | – | 96 h, 2% FBS | – | TC50 | > 20 µM
Cc1ccc2c(NC(C)c3ccccc3)nc(N3CCNCC3)nc2c1 (stereo not drawn) | Vero-E6 | CellTiter-Glo ATP | – | concentration not given, 72 h, retest 8-point duplicates | reference: DMSO 0%, hyamine -100%, more negative, more toxic | cytotoxicity efficacy | -14.4%
CC[C@H](C)[C@H](NC(=O)[C@@H](N)CC(N)=O)C(=O)N1CCC[C@H]1C(=O)N1CCC[C@H]1C(=O)N[C@@H](CC(C)C)C(=O)N[C@H](C(=O)N[C@@H](CCC(N)=O)C(=O)N[C@H](C(=O)N1CCC[C@H]1C(=O)N[C@H](C(=O)N[C@H](C(=O)N[C@H](C(=O)N1CCC[C@H]1C(=O)N1CCC[C@H]1C(=O)N[C@@H](Cc1ccccc1)C(=O)N[C@@H](CC(C)C)C(=O)N[C@@H](CCC(N)=O)C(=O)N1CCC[C@H]1C(=O)N[C@@H](CCC(=O)O)C(=O)O)C(C)C)C(C)C)C(C)C)[C@@H](C)O)[C@@H](C)O | HEK293 (empty vector) | – | – | 10 µM, 5 min, 37 °C | – | uptake | 0.021 pmol/mg protein
N.N.[Cl][Pt][Cl] | HepaRG | – | – | maximum tested, 24 h, 72 h recovery | reference: vehicle | relative survival | 44%
O=C(NCc1cccs1)C1CCCN(Cc2cccc(-c3ccc(F)cc3F)c2)C1 (stereo not drawn) | Vero-E6 | CellTiter-Glo ATP | – | concentration not given, 72 h, first round 5-point | reference: DMSO 0%, hyamine -100%, more negative, more toxic | cytotoxicity efficacy | 0%

Some of these lines once more:
SMILES | target or system | test | test system | conditions | scale | measurement | value
O=S(=O)(c1ccc(-c2ccc3nccc(Nc4ccc5[nH]nnc5c4)c3c2)cc1)N1CCOCC1 | NIH 3T3 | cytotoxicity, PrestoBlue | – | 96 h, 2% FBS | – | TC50 | > 20 µM
CC(C)C[C@@H](NC(=O)[C@H](N)CCCCN)C(=O)N1CCC[C@@H]1C(=O)N[C@H](Cc1ccccc1)C(=O)N[C@H](Cc1ccccc1)C(=O)N[C@H](C)C(=O)N[C@H](CCC(=O)O)C(N)=O | NGF-differentiated PC-12 neurons | – | – | 40 µM, 24 h | reference: untreated | viability | 91.5%
Cc1ccc2[nH]c3c(c2c1)CCCC3NCCc1ccc(Cl)cc1 (stereo not drawn) | A549 | – | – | 50 µM, 23 h | – | non-viable cells | 69.2 ± 26%
C#CC[C@H](NC(=O)[C@H](CCCCN)NC(=O)[C@H](CCCCN)NC(=O)[C@H](Cc1c[nH]c2ccccc12)NC(=O)[C@H](CCCCN)NC(=O)[C@H](CCSC)NC(=O)[C@H](CCCNC(=N)N)NC(=O)[C@H](CCCNC(=N)N)NC(=O)[C@H](CC(N)=O)NC(=O)[C@H](CCC(N)=O)NC(=O)[C@H](Cc1ccccc1)NC(=O)[C@H](Cc1c[nH]c2ccccc12)NC(=O)[C@@H](NC(=O)[C@H](CCCCN)NC(=O)[C@@H](NC(=O)[C@H](CCC(N)=O)NC(=O)[C@@H](N)CCCNC(=N)N)[C@@H](C)CC)[C@@H](C)CC)C(=O)N[C@@H](CC(N)=O)C(=O)N[C@@H](Cc1c[nH]cn1)C(=O)N[C@H](C(=O)N[C@@H](CCSC)C(=O)N[C@@H](CC(C)C)C(=O)N[C@@H](CC(N)=O)C(=O)N[C@@H](Cc1c[nH]cn1)C(=O)N[C@@H](CC(C)C)C(=O)N[C@@H](Cc1ccc(O)cc1)C(=O)N[C@@H](C)C(=O)N[C@@H](CC(C)C)C(=O)N[C@@H](CO)C(=O)N[C@H](C(=O)N[C@@H](CCCCN)C(=O)N[C@@H](CC(=O)O)C(=O)NCC(=O)N[C@H](C(N)=O)C(C)C)[C@@H](C)CC)C(C)C | C26 | – | – | 2.2 µM, two days | – | cell growth | no effect
Oc1ccc(C(c2ccc(O)cc2)(C(F)(F)F)C(F)(F)F)cc1 | HepG2 spheroids, dissociated | annexin V-FITC/PI flow cytometry | – | 0.1 µM, 24 h | – | viable cells | 70 ± 8.99%
